Measurements collected from several papers.
Every numbered part comes from another study and shows a few of its results, in no order.

Series 1 — method: RNA Bind-n-Seq; molecule type: RNA; sample: in vitro; tested at: 100 nM; reference: input RNA pool; direction: higher = stronger binding
Target: RING finger protein unkempt homolog, zinc fingers 1-6, SBP tag (UNK, Homo sapiens, UniProt Q9C0B0, residues 30-357)
Sequence of UniProt Q9C0B0 (30-357, looked up): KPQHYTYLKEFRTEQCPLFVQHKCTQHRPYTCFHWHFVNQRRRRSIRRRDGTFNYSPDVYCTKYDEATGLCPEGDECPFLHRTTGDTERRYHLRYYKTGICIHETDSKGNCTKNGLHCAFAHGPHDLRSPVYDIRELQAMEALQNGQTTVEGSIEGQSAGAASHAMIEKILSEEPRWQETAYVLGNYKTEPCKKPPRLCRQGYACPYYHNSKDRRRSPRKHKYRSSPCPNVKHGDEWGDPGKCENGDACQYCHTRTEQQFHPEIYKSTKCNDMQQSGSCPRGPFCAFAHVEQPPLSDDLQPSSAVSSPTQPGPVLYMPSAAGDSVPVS
Setting: RNA with constant flanks, vertebrate orthologous sites, ends assumed
Constant ends, left off below: GGGAGUUCUACAGUCCGACGAUC … CAACAGAGGAUUGAGCAUCA
Strand	bound/input enrichment [ratio]
UUCACCACUCCUGGGUGCGUGACUGAGGGUGAAGCAUCCACCAGCACUUCAAGGGGUCCAUAGUAUUUUCUUUUGCUGCCUCAAAGUCCCCAAAGCCUUCAAGCGGAAGUGGCAGUAGAU	0.66
AAAUUUAUUUCAUGCCCUGGACUCCCUAUCGUACUGAUACUUUAAUAGAAUAUGCUUCUUUAGAAGAUUUCCAAAACAGUCGCCAAACAACAACAUAUAAACUUCCAAAUCGAGUAGAUG	1.09
GUGACUUUGGGCGUCCGCACAUCUUGAGUGCAGAGGCUGCUUGGUCUUGGGCCUGAUAGGUUUUUCUUAUCUGUGGCAGGAGGCCUCUAUUGCCAACAUGCUCCGCCAGAUCCUUGGUCA	0.392
CUUCUCACGCUCUUACAUGAGUGGAUUAUUAUUUUCUUUCUUUUUUUUUAUGUUUUGUAUAGAAAACAAAUUCAUUUAAACAAACUUAUUAUUAUUAUUAUUUUUUACAAAAUAUAUAUA	2.66
AAAAACUGUUGUCUGAAAUGUCUACCCAGAGAAGUGUUGCCUUAUAAAUAUCAAAUAAUUUAGUUAGGUUCUUCUUAGGUAUUAAAUUACAUGUCAAGCAUUUAAAGUGAAUUUGAGGUG	0.286
GAUUUGGACCCUGGAGCCGAACCAGGGAGCUAGCAAAAGUAAAGCAGACUUGUAAAAUUAUAGCCAUGUGCAGCUGUACAGCAACAGUAUUACCACUAGCAUCUGUGUUAAAGUAUUUAU	0.542
UUUUAAUCGAUCAGGUCUGUAAAUGUGUACUAAGAAAAUCAAGUUUAUUUAUAAACAGAAGAGUUUAUUUAAAGAGAAGGUCAUUCUUCAUUGAUAUGGUGACAGACAUGGAUUCCAUGU	0.487
UGAGCAUACAUAUACAAUGUGUUUCAAAUGCUGCUUGUAAAAUUAAACCAUCAUCUAGAAUAGAGUUAAUUUAUUAUAAUCAAGCUACAAAUAGGUUUUCUUAAACCAGAGAUGCACUGC	0.585

Series 2 — method: RNA Bind-n-Seq; molecule type: RNA; sample: in vitro; tested at: 365 nM; reference: no-protein control; direction: higher = stronger binding
Target: RNA binding protein fox-1 homolog 2, RRM domain, GST-SBP tag (RBFOX2, Homo sapiens, UniProt O43251-10, residues 100-194)
Setting: natural RNA segment, single round, ends assumed
Constant ends, left off below: GGGAGUUCUACAGUCCGACGAUC … UGGAAUUCUCGGGUGCCAA
Construct (chain): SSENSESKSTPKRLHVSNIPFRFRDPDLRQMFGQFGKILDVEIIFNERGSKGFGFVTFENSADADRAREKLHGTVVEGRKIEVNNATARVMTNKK
Strand	RBNS enrichment (R)
CCCUCACUCCUACCUCCCAUAGAAGUGUAUUCUUAUCCCUAGUUCCUGUCUGAGUAAGCCAGGGUGGCAGACGCUGGUCCCAAACCUCACCCAGCAACCAGCCUCUCAUU	0.588
CCGCAACCACACCUACAAUACCUAUAUCGGGCAGGGUUACAUCAUCCCCGGGAUGGACCAGGGGCUGCAGGGUGCCUGCAUGGGGGAACGCCGGAGAAUUACCAUCCCCC	1.06
UCUGCCUGGCCCAGGGGGGCUGCCCCCAUUCCUGGAGCCCAGGGGCCCAGCUUGCAAUUGCUAGUGUCAGGAGUGACUUGUAGCUUUGCCUUGGUUGUGAAAUGAUUUCA	0.566
ACCAGAGUUCUUAAGUGGCCCAGUUGUGGAGCCAAGUCUAAGUCGUGUGGAGUCAGUGCUGACAUCACUGGCUUGUGCUGUCUGUCACAUGUGUUUGUCUCUGCUGCUUG	0.611
GCCCUCUGCUUUACUCUCAUGUGGCAAACGUGCGGCUCGUGGUGUGAGUGCCAGAAGCUGCCUCCGUGGUUUGGUCACCGUGUGCAUCGCACCGUGCUGUAAAUGUGGCA	1.07
AUCACGUGUGGCUCCAGCCCUUGUUUCUGCCAGUGUAGACACCUCUGUCUGCCCCACUGUCCUGGGGUCGCUCUUGGGAGGCACAGGCAUGGGUGUGUCUGGCCUCAUUC	0.304
UUAUUUAAUAAUUAGCACACCCUGAUCUGGCUUCUUUGCUUGCUUUUCUUUGGAUCCCUGUCCAAUAACCUCUGUGGAAUCUCAUUCCCUAAUUGUUGAUACUCAUUUUC	1.68
CUUCUUCAGGGUCUCCCCCCAACCCAACCCAACCAGAUGCUCCCACUUUUAGACAUCUUGUAAUGAAUAGGCCUUGUUGCUACUCUCAAAACAAAUCAAUCGGGAGGGGA	0.336

Series 3 — method: universal PBM; molecule type: double-stranded DNA, one strand shown; sample: in vitro; tested at: not given; direction: higher = stronger binding
Target: Sal-like protein 4, full length isoform B (SALL4, Homo sapiens, UniProt Q9UJQ4-2, residues 1-616)
Setting: 8-mer, flanks averaged, mean of replicates
Construct (chain): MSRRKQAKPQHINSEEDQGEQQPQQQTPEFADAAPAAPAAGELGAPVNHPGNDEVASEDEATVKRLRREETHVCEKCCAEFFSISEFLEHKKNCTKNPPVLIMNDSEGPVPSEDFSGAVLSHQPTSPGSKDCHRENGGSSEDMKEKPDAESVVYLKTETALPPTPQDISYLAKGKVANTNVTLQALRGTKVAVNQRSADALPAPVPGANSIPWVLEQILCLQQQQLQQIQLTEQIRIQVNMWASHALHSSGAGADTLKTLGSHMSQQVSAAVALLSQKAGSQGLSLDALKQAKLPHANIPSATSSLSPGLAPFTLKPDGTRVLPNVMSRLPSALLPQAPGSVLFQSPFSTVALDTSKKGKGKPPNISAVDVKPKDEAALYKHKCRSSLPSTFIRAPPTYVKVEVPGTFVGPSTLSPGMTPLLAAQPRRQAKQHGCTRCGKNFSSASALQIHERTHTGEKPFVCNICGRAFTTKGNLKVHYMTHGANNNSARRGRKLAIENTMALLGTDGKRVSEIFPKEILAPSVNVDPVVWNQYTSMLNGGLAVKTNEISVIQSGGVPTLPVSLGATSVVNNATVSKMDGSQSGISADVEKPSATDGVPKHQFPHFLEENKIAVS
Strand	E-score
TAGCAAGA	0.0868
CTACCGAG	-0.197
CGTATCGC	-0.052
CTACTTCA	-0.0421
CGCTCAAA	-0.163
CACTACAG	-0.056
AGACCTGC	-0.0846
GATGCTAC	0.0647
CAATACAG	0.119
AACCGTCC	-0.0581
GAACTTCC	-0.132
ATGACCTG	-0.0639
AAGCGGTC	-0.214
AAATGGCT	0.107
TATCAACA	0.212
ACGACGCT	-0.108
CCAAAGGG	-0.207
TGCCTCCA	-0.115
ACCGGTAA	-0.0914
ATTTGCTC	0.0783
ATAGTATG	0.291
CATGGGCA	-0.231
GATGCTTA	0.0106
CTCCAAAA	0.0425
AGGCAATA	0.182

Series 4 — method: aptamer microarray, sandwich; molecule type: DNA with 2'F-ANA; sample: in vitro; tested at: 200 nM; added: Cy3 exosite-II aptamer, 400 nM; direction: higher = stronger binding; strand: GGTTGGTGTGGTTGG
Target: Prothrombin, mature alpha-thrombin (F2, Homo sapiens, UniProt P00734)
Setting: whole 15-mer aptamer, many near background
Modification	mean fluorescence intensity
2'F-ANA at 3 4 7 9 11 13 15	545 a.u.
2'F-ANA at 1 4 5 7 10 14	40.6 a.u.
2'F-ANA at 2 3 4 6 9 11 14	212 a.u.
2'F-ANA at 4 7 8 9 10 12	132 a.u.
2'F-ANA at 3 6 9 10 12 13 14	385 a.u.
2'F-ANA at 6 8 12 13	690 a.u.
2'F-ANA at 1 3 8 13 14	95.6 a.u.
2'F-ANA at 1 2 5 8 9 10 13 15	49.2 a.u.
2'F-ANA at 1 2 4 6 8 9 10 11 14	49.7 a.u.
2'F-ANA at 4 6 8 11 12 13	341 a.u.
2'F-ANA at 3 4 10 13 14	211 a.u.
2'F-ANA at 2 3 4 5 6 7 9 12 14 15	91.1 a.u.
2'F-ANA at 1 2 3 4 5 6 8 9 11 12 14	45.6 a.u.
2'F-ANA at 4 6 7 8 9 10 11 13 14 15	58.8 a.u.
2'F-ANA at 1 2 3 4 5 7 14 15	43.6 a.u.
2'F-ANA at 3 4 6 7 9 11 15	421 a.u.
2'F-ANA at 3 9 13 14 15	533 a.u.
2'F-ANA at 2 5 6 7 10 11 12 13 15	51.1 a.u.
2'F-ANA at 1 4 6 7 9 10 14 15	47.9 a.u.

Excerpt of the above (series 1):
Strand	bound/input enrichment [ratio]
CUUCUCACGCUCUUACAUGAGUGGAUUAUUAUUUUCUUUCUUUUUUUUUAUGUUUUGUAUAGAAAACAAAUUCAUUUAAACAAACUUAUUAUUAUUAUUAUUUUUUACAAAAUAUAUAUA	2.66
AAAAACUGUUGUCUGAAAUGUCUACCCAGAGAAGUGUUGCCUUAUAAAUAUCAAAUAAUUUAGUUAGGUUCUUCUUAGGUAUUAAAUUACAUGUCAAGCAUUUAAAGUGAAUUUGAGGUG	0.286
GAUUUGGACCCUGGAGCCGAACCAGGGAGCUAGCAAAAGUAAAGCAGACUUGUAAAAUUAUAGCCAUGUGCAGCUGUACAGCAACAGUAUUACCACUAGCAUCUGUGUUAAAGUAUUUAU	0.542
UUUUAAUCGAUCAGGUCUGUAAAUGUGUACUAAGAAAAUCAAGUUUAUUUAUAAACAGAAGAGUUUAUUUAAAGAGAAGGUCAUUCUUCAUUGAUAUGGUGACAGACAUGGAUUCCAUGU	0.487
